Published values gathered from unrelated publications.
A part holds a random share of what one study measured.
Sequence of UniProt Q15349 (whole entry, looked up): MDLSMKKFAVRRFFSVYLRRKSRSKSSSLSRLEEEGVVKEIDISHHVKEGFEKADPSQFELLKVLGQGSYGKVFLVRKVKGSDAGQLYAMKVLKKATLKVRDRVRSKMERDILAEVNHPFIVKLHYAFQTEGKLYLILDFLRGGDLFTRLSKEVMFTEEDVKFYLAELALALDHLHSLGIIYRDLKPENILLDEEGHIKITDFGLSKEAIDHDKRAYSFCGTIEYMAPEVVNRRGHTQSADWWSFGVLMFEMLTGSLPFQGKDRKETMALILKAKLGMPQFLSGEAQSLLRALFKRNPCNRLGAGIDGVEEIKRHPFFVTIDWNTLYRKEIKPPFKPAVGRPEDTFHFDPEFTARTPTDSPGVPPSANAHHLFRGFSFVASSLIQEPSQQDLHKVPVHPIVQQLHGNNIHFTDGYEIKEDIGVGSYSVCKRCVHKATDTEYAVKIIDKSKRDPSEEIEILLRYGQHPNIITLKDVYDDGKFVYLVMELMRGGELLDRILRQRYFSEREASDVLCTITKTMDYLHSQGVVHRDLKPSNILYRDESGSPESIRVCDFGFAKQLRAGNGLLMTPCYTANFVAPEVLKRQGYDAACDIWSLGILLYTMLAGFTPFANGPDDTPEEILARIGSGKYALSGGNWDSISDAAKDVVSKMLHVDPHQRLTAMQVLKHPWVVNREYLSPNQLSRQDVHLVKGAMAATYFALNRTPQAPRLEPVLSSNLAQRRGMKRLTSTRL
Sequence of UniProt P78368 (whole entry, looked up): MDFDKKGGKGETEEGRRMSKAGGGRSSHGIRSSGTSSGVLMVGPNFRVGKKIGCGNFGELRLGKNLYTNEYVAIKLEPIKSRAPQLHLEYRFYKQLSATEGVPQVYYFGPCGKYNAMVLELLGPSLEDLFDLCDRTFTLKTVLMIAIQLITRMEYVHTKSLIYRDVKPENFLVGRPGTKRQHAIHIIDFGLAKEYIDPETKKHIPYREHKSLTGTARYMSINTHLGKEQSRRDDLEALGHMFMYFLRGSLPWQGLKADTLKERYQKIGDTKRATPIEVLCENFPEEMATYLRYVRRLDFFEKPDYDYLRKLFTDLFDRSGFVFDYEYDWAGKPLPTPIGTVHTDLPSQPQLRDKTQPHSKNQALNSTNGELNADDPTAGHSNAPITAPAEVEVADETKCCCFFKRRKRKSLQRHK
Sequence of UniProt Q8WTQ7 (whole entry, looked up): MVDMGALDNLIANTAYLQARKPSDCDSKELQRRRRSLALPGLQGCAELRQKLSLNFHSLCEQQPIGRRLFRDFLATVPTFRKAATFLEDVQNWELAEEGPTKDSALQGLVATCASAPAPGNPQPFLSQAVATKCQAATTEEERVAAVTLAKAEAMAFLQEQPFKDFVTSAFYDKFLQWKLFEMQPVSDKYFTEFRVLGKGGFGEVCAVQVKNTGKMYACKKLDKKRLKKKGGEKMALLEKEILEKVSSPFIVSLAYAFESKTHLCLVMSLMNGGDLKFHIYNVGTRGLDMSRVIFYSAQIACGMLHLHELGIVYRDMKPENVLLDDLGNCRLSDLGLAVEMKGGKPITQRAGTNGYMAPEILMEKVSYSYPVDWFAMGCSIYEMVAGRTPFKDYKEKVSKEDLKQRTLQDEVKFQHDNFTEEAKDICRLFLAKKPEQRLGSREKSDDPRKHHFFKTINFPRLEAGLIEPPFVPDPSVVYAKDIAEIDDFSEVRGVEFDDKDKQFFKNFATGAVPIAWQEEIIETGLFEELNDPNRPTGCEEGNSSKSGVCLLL
Sequence of UniProt Q9UEE5 (whole entry, looked up): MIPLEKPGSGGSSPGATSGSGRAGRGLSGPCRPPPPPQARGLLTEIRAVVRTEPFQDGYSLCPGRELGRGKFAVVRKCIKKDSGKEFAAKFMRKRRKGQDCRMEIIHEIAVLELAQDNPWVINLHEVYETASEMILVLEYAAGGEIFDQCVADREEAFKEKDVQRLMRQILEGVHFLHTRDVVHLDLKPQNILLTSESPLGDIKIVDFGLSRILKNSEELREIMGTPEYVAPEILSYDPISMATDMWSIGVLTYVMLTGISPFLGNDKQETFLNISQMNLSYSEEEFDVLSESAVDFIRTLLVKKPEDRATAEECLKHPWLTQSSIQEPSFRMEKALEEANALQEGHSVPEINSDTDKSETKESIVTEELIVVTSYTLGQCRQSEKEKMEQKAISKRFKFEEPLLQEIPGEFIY
Sequence of UniProt P36507 (whole entry, looked up): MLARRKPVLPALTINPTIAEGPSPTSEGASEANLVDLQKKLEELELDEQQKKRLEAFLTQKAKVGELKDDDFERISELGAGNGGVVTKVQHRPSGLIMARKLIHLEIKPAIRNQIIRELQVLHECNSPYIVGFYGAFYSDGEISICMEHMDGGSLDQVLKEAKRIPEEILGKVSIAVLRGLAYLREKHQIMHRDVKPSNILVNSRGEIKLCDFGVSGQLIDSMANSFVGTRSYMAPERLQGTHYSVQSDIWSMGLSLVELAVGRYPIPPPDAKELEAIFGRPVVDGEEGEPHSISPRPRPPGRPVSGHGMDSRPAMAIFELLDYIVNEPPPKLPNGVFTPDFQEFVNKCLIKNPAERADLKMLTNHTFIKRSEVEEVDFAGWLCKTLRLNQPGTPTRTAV
Sequence of UniProt P29320 (whole entry, looked up): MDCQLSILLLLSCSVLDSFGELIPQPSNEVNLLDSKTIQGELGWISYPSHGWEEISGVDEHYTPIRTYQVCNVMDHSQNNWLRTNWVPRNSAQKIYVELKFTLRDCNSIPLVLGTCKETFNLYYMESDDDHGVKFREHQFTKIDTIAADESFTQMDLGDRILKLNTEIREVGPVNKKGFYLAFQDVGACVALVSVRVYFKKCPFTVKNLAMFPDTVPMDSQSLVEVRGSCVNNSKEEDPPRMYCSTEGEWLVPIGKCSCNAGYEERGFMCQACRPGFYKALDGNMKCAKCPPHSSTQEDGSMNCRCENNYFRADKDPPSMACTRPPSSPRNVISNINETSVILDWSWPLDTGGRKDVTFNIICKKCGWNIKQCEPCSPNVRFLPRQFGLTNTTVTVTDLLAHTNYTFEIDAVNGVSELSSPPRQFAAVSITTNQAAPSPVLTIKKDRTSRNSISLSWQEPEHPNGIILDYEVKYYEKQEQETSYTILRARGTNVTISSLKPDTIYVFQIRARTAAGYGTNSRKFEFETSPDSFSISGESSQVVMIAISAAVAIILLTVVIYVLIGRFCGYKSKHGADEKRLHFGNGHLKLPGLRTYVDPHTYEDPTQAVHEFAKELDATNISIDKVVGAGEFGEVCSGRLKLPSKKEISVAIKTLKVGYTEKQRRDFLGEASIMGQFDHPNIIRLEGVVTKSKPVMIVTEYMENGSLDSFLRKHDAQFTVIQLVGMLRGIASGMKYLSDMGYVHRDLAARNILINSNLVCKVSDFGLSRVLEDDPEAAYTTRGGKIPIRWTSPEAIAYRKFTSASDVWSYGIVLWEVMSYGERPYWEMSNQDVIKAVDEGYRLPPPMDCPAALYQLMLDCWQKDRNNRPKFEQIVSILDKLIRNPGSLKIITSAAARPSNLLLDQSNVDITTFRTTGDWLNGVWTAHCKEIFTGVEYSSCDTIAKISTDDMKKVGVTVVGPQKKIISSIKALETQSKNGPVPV
Sequence of UniProt P22607 (whole entry, looked up): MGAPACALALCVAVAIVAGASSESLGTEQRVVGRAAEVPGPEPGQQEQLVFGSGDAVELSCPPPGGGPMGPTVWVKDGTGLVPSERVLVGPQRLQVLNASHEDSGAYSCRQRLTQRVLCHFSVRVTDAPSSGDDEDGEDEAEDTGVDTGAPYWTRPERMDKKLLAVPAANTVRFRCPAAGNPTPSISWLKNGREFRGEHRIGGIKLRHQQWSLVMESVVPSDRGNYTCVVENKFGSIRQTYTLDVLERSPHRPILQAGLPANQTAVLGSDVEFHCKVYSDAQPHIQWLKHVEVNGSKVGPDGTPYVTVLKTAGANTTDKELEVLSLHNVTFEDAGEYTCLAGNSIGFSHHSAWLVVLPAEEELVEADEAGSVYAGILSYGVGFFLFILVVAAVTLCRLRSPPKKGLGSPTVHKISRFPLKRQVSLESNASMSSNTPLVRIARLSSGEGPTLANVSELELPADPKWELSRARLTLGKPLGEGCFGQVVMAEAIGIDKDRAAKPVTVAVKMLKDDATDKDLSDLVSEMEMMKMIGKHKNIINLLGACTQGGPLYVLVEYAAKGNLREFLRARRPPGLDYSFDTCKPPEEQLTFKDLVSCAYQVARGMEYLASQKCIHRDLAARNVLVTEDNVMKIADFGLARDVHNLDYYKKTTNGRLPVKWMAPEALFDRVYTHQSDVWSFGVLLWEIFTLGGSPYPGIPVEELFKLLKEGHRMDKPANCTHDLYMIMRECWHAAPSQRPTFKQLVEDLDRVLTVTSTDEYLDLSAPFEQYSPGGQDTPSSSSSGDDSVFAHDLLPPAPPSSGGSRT
Sequence of UniProt P06239 (whole entry, looked up): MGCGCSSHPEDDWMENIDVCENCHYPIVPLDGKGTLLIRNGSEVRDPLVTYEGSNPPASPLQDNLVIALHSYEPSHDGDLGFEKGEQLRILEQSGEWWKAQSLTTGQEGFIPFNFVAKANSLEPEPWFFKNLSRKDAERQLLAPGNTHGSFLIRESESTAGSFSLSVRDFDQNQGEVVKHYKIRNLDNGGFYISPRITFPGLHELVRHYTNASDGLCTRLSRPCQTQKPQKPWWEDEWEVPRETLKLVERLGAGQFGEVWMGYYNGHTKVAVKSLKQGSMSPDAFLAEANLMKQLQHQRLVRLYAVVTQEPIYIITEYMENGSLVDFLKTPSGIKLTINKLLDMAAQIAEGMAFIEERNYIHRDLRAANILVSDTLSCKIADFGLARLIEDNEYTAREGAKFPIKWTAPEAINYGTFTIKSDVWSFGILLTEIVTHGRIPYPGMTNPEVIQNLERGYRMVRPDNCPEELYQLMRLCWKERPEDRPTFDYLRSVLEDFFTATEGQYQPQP

Set 1
Cell line: HaCaT
Tested at: 100 µM
Time: 18 h
Measurement: viability
CC(C)C[C@H](NC(=O)[C@@H](O)[C@H](N)Cc1ccccc1)C(=O)O: 93.2%
CC(=O)OC/C=C(C)/C=C/C=C(C)/C=C/C1=C(C)CCCC1(C)C: 86.4%
Cc1ccsc1/C=C/C1=NCCCN1C: 114%
C[C@]12CC[C@@H]3c4ccc(O)cc4CC[C@H]3[C@@H]1C[C@@H](O)[C@@H]2O: 92%
O=C1c2c(O)cccc2C([C@@H]2O[C@H](CO)[C@@H](O)[C@H](O)[C@H]2O)c2cc(CO)cc(O)c21 (some centres unmarked): 118%
CC(C)(CO)[C@@H](O)C(=O)NCCCO: 118%
CCOc1nc2cccc(C(=O)OCc3oc(=O)oc3C)c2n1Cc1ccc(-c2ccccc2-c2noc(=O)[nH]2)cc1: 91.5%
Fc1ccc([C@@H]2CCNC[C@H]2COc2ccc3c(c2)OCO3)cc1: 16.9%

Set 2
Compound: Cc1cc(NC(=O)c2cccc(S(F)(F)(F)(F)F)c2)cc(-n2ccn3nc(-c4cccnc4)cc23)c1
Observed: cell-free assay
Technique: competition with immobilised ligand
Tested at: 1 µM
Measurement: remaining binding
NEK2 (Homo sapiens, UniProt P51955): 90.8%
CAMK2G (Homo sapiens, UniProt Q13555): 100%
WNK1 (Homo sapiens, UniProt Q9H4A3): 100%
PIP4K2C (Homo sapiens, UniProt Q8TBX8): 99.1%
MAK (Homo sapiens, UniProt P20794): 100%
MAP3K12 (Homo sapiens, UniProt Q12852): 67.7%
ULK1 (Homo sapiens, UniProt O75385): 100%
CAMK1D (Homo sapiens, UniProt Q8IU85): 94.9%
STK17A (Homo sapiens, UniProt Q9UEE5): 100%

Set 3
Host: mouse
Medium: microsomes or S9
Tested at: 2 µM
Time: 0.5 h
Measurement: remaining compound
CC(=O)Nc1cccc(C(=O)Nc2ccccc2)c1: 58.6%
COc1ccc(N2C(=O)CCc3c(-c4ccccc4)cc(N(C)C)cc32)cc1: 7.95%
Cc1ccc(CNC(=O)N2Cc3c(sc4c3CCCC4)-n3cccc3C2C(C)C)cc1 (centres unmarked): 0.621%
CC(=O)c1ccc(N2CCOCC2)c(-c2cccc3c2OCC3)c1: 1.09%
CCCN1C(=O)c2c(C(=O)NCc3ccc(N(C)C)cc3)ncn2CC1(C)C(=O)NCc1ccc(F)cc1 (centres unmarked): 14.9%
COc1ccccc1CCN1C(O)=c2ccccc2=NC12C(=O)Nc1ccccc12 (centres unmarked): 0.2%
c1ccc(-c2nc(-c3csc(-c4ccccc4)n3)cs2)cc1: 68.5%

Set 4
Compound: CN(C)CCCn1cc(C2=C(c3c[nH]c4ccccc34)C(=O)NC2=O)c2ccccc21
Observed: enzyme activity
Mode: inhibitor
Tested at: 0.5 µM
Relative to: control
Measurement: remaining activity
MAP2K2 (Homo sapiens, UniProt P36507): 98.9%
FGFR3 (Homo sapiens, UniProt P22607): 87.9%
LCK (Homo sapiens, UniProt P06239): 91.8%
TEK (Homo sapiens, UniProt Q02763): 99.7%
MST1R (Homo sapiens, UniProt Q04912): 109%
CSNK1G2 (Homo sapiens, UniProt P78368): 90.3%
MERTK (Homo sapiens, UniProt Q12866): 92.2%
EPHA3 (Homo sapiens, UniProt P29320): 93%
TAOK2 (Homo sapiens, UniProt Q9UL54): 75.7%
FGFR1 (Homo sapiens, UniProt P11362): 74.1%
FRK (Homo sapiens, UniProt P42685): 92.3%
GRK7 (Homo sapiens, UniProt Q8WTQ7): 60.4%
WEE1 (Homo sapiens, UniProt P30291): 101%
RPS6KA2 (Homo sapiens, UniProt Q15349): 1.4%
